Measurements from different studies.
Each numbered part is a random draw from the data of one study; scales do not carry over between parts.

Series 1
Cell line: HEK-293T
Read-out: pseudovirus infection
Method: FDA-approved drug library screen
Organism: VSV pseudotyped with SARS-CoV-2 spike
Concentration: 10 µM
Time: 16 h
Baseline: vehicle-treated
For `N[C@@H](Cc1ccc(O)c(O)c1)C(=O)O`, the GFP-positive cells was 86.1%.
With `C[N+]1(C)[C@@H]2CC[C@H]1C[C@@H](OC(=O)C(O)c1ccccc1)C2` (stereo partly drawn) the GFP-positive cells was 112%.
`CC(C)(C)NC(=O)[C@H]1CC[C@H]2[C@@H]3CC[C@H]4NC(=O)C=C[C@]4(C)[C@H]3CC[C@]12C` gave a GFP-positive cells of 99.3%.

Series 2
Target: Replicase polyprotein 1ab, main protease (rep, Severe acute respiratory syndrome coronavirus 2, UniProt P0DTD1)
Read-out: enzyme activity
Action: inhibitor
Concentration: 20 µM
Setting: hit confirmation
`CCCCCCCCCCCCCCCC[n+]1ccn(Cc2ccccc2)c1C` has an inhibition of 77.8%.
With `CN1Cc2ccccc2[C@@H]2c3cccc4[nH]cc(c34)C[C@H]21` the inhibition was 61%.
With `NC(CN(O)N=O)C(=O)O` (stereo not drawn) the inhibition was 3.5%.
`CN1CC[C@@]2(C)c3cc(O)ccc3N(C)[C@@H]12` gave an inhibition of 75.5%.

Series 3
Target: Replicase polyprotein 1ab, nsp12 with nsp7/nsp8 (rep, Severe acute respiratory syndrome coronavirus 2, UniProt P0DTD1)
Action: inhibitor
Organism: SARS-CoV-2
Concentration: 20 µM
`OCCOCCN1CCN(C(c2ccccc2)c2ccc(Cl)cc2)CC1` (stereo not drawn) has an inhibition of 78.8%.
`C=C1c2cccc(O)c2C(=O)C2=C(O)[C@]3(O)C(=O)C(C(N)=O)=C(O)[C@@H](N(C)C)[C@@H]3[C@@H](O)[C@H]12` gave an inhibition of 80.7%.
The inhibition of `O=C(O)c1cc(/N=N/c2ccc(O)c(C(=O)O)c2)ccc1O` is reported as 82.3%.

Series 4
Target: PABPC1L2, full length, GST fusion (mouse, UniProt A0ABA7IW68)
Method: RNAcompete
Molecule type: RNA
Matrix: in vitro
Concentration: 20 nM
Setting: 7-mer, probes averaged, single round
Baseline: mean of 7-mers
Reading: higher = stronger binding
Residues (chain): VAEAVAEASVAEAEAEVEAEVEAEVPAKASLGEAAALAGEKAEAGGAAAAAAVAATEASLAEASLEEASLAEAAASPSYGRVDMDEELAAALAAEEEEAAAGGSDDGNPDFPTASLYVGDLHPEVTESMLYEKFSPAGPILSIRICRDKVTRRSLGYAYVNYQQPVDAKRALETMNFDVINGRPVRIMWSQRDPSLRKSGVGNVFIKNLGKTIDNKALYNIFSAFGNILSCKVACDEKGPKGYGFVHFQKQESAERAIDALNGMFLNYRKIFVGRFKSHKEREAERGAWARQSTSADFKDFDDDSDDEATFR
`UCUAAGG` gave a 7-mer Z-score of -0.177.
For `UCCCAUG`, the 7-mer Z-score was -0.45.
For `AUACGGC`, the 7-mer Z-score was 0.169.
For `AAUUUGC`, the 7-mer Z-score was -0.0047.
`UGGCAAU` gave a 7-mer Z-score of -0.0971.
The 7-mer Z-score of `UCAAGUA` is reported as -0.0935.
`ACUCAUC` has a 7-mer Z-score of -0.273.
The 7-mer Z-score of `UACUCUA` is reported as -0.217.

Excerpt of the above (series 3):
`OCCOCCN1CCN(C(c2ccccc2)c2ccc(Cl)cc2)CC1` (stereo not drawn) has an inhibition of 78.8%.
`C=C1c2cccc(O)c2C(=O)C2=C(O)[C@]3(O)C(=O)C(C(N)=O)=C(O)[C@@H](N(C)C)[C@@H]3[C@@H](O)[C@H]12` gave an inhibition of 80.7%.
